{"data": "Experimental data pooled from the literature", "LysR family transcriptional regulator 1-307": "LysR family transcriptional regulator 1-307 (Pseudomonas savastanoi pv. phaseolicola, UniProt Q48CZ9)", "mgrA full length assumed": "mgrA full length assumed (Staphylococcus aureus, UniProt Q99VT5)", "AfsR 1-980": "AfsR 1-980 (Streptomyces avermitilis)", "T1": "AfsR 1-980 (Streptomyces avermitilis); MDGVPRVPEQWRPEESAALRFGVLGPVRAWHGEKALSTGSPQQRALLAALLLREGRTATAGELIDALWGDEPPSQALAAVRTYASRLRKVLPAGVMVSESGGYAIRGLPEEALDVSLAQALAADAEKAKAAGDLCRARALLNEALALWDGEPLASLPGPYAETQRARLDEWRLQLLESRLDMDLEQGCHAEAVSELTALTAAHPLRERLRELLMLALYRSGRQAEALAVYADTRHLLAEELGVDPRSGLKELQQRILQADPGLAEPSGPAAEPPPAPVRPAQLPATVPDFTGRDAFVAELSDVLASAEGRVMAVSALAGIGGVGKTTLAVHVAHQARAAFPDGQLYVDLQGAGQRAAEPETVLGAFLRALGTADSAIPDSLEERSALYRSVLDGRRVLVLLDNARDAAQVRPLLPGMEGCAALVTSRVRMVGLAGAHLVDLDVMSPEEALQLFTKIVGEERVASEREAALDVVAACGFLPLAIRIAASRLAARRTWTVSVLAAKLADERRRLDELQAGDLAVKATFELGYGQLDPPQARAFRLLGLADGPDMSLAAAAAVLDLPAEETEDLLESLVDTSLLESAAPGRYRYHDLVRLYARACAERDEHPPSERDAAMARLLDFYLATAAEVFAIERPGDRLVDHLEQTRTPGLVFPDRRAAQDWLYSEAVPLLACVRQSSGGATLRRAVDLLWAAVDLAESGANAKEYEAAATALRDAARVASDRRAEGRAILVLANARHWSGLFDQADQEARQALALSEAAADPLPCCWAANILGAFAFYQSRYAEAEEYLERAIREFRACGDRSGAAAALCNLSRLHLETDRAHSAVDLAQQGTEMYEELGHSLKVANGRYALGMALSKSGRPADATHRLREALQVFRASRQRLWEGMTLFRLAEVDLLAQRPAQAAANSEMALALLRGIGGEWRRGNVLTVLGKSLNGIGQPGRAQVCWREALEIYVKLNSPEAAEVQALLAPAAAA", "note": "Protocols differ between the studies behind these lines. Numbers after ± are the reported error.", "sequence of UniProt Q99VT5 (whole entry, looked up)": "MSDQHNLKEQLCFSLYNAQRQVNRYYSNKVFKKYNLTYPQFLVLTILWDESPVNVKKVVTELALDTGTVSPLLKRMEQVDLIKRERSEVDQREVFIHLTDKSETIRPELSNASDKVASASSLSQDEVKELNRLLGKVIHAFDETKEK", "sequence of UniProt P26993 (whole entry, looked up)": "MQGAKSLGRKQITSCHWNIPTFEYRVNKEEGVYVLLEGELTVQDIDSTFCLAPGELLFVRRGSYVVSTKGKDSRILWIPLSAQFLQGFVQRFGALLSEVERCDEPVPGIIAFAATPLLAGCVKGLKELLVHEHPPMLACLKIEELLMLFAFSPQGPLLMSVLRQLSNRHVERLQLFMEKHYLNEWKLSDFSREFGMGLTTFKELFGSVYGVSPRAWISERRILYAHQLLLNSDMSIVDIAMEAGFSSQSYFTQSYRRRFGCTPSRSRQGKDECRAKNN"}
{"Substance": "Polymyxin B", "test system": "mouse", "setting": "intraperitoneal, 40 mg/kg single dose, day 3", "endpoint": "survival", "result": "0%"}
{"Substance": "GGGGCAGCAGACGGCCAACACCCGCCACTCGCAGCGGGCAGTTTTTAATCAGCGCCAACAATTTGGAGAGCAGCCCGGTTGACCTCACAAAGTAAGCCACTCAATATGCTGTAAATCAATCAGCAGGGATGATTACCGACATGGCCTTTGACGCGTATTTGAAAATCGACGGAATTCCAGGTGAAGCTCTTGACGCTCAATTTAAGGACTGGATCGAAATGGAAAATTTCGACCTAGGAGCAAGCCAGTCCGCCTCTGTCACGG (dsDNA)", "tested on": "LysR family transcriptional regulator 1-307", "assay": "EMSA", "test system": "double-stranded DNA, one strand shown", "endpoint": "binding", "result": "binds"}
{"Substance": "nonaarginine", "tested on": "PorA peptide pore", "assay": "peptide binding, planar bilayer single-channel recording", "setting": "pH 7.4, +15 mV, trans side, 150 mM KCl", "endpoint": "Kd", "result": "1430 ± 150 nM"}
{"Substance": "GATTAGGGGGCGTATCAGCTAGGCACGGGGGCAGCTCTCATCGTGCAATCAGACCAAGCACACTCTAGGCTGGTAAAAGAAGAAGAAACATAGCTAATATTTGCCTTCGAAATTTTGAAAAGCAAGGAGCTGCGATTATGTCTTTTGATGCTTTTATGAAAGTTGATGGTGTTGAGGGCGAGTCTCTTGACGATGGTCACAGAG (dsDNA)", "tested on": "LysR family transcriptional regulator 1-307", "assay": "EMSA", "test system": "double-stranded DNA, one strand shown", "endpoint": "binding", "result": "binds"}
{"Substance": "heparin sodium", "assay": "measured: Diarrhea", "test system": "human healthy Chinese adults", "setting": "intravenous infusion, 8 IU/kg/h, 5 days", "endpoint": "subjects with adverse event", "result": "0%"}
{"Substance": "GGAGACAUAUAUCACAGCCUGUCUCC (RNA (Hepatitis C virus); hairpin; 12 nt loop)", "tested on": "HNRNPA1 UP1 1-196 (Homo sapiens)", "assay": "ITC", "test system": "folded RNA", "endpoint": "Kd", "result": "128 ± 6 nM"}
{"Substance": "CTCTATTTGCCTCCCTATACTTTTGAAAAACAGACAAATTCCATAACAGAAATTTGTCTGTTCGATAGAATAATTGAATGGTTTTTGATTTTAATGTGCAAAACTTTAAATTTATTAGTAGTCCATTCAATTATTCTCAATGCTAGTTATCTTACCTTATGCTGCTTTTTGTTTCTTCTTAT (dsDNA)", "tested on": "mgrA full length assumed", "assay": "EMSA", "test system": "double-stranded DNA, one strand shown", "setting": "together with: Montelukast absent", "endpoint": "Kd", "result": "4300 ± 1100 nM"}
{"Substance": "CTCCCTGCATGATGTTCTTATTTCTCCTTTTTCCAAGAAAGCGTGTCTCGGGGATTTCGATTGCTTGAGCAAAAGCGGTCGCGGCCGTGCGGGCTGGGTTGATCAGCATCAGAGGTGATGGTCAGTGTTATGAATTTGCCCTGGTGGGCGGGGTAGTGTCAAGGTCGCTGACTTTGATGATTAACTGATGATCGTGGGATTCTGAGGTGGTGTTCGCGAGGGTGAAGGAGTTCCTTCCTGGAGACATCCGTGCCCCGGATGGCGGTCCACAATTCACGAGTGGGATGC (dsDNA)", "tested on": "T1, AfsR 1-980 (Streptomyces avermitilis)", "assay": "EMSA", "test system": "double-stranded DNA, one strand shown", "endpoint": "binding", "result": "binds"}
{"Substance": "RNA 1 AACAAAACAAAAUAGCACCGUAAAGC / RNA 2 GCUUUACGGUGCUA (dsRNA; 14 bp duplex, 5' 12 nt overhang)", "tested on": "rhlE (Pseudomonas aeruginosa, UniProt Q9I689)", "assay": "fluorescence polarization", "test system": "double-stranded RNA", "endpoint": "Kd", "result": "1.5 nM"}
{"Substance": "GGGCGGGGGAGACAUAUAUCACAGCCUGUCUCGUGCCCGACCCCGCCC (RNA (Hepatitis C virus); hairpin; bulge; 12 nt apical loop)", "tested on": "HNRNPA1 1-249 (Homo sapiens)", "assay": "ITC", "test system": "folded RNA", "endpoint": "Kd", "result": "286 ± 63 nM"}
{"Substance": "aspterric acid", "test system": "Arabidopsis thaliana Col-0 seeds", "setting": "6.25 µg/mL, seed germination", "endpoint": "root length", "result": "0.127 cm"}
{"Substance": "UAUAUCACAGCC (ssRNA)", "tested on": "HNRNPA1 UP1 1-196 (Homo sapiens)", "assay": "ITC", "test system": "RNA", "endpoint": "Kd", "result": "224 ± 13 nM"}
{"Substance": "GCACTGCTACGGCTGATCACATAGGGTGAAAAGAAAAACGGGAGGTTCGGCGTGTTCGTTGAACGTGCGCCACTTGTCGACTTAGTGTCCTGTTCGGAAGAGTCCAGGGAACAGACACACTGGTAACCCTAAACTTCAGCGTTAGGGTTCGGGTCGGCGTTCGGACCGTCCCATTCGGCATCAGTCGTCGGATCGCGTCATCCGCGAGGCGGCGACACGTAACTCGAGGCGA (dsDNA)", "tested on": "T1, AfsR 1-980 (Streptomyces avermitilis)", "assay": "EMSA", "test system": "double-stranded DNA, one strand shown", "endpoint": "binding", "result": "binds"}
{"Substance": "HVLVMSATRR", "test system": "peptide, C57BL/6J mice, male, serum", "setting": "subcutaneous osmotic pump, 3 mg/kg/day peptide basis, 8 weeks", "endpoint": "phosphorus", "result": "7.3 mg/dL"}
{"Substance": "CCGCCATCCCCGTGGCAACCGCCCCCTCGCGTCCACCCCGGCAGGCCGTCCGCGGTTGCGCCGGAACAGGCGTTGCCATCGACATACCGTGCTCCGCAGAAAAATAACCGCCTCGACCTGAGACCTTTTTCCTTCTCGGCTGGCAAGTAGAGGAATCCGCCCCGACCCAAGGTCCGCAGAGACCACGAGGAACCCTGTACATGCCCGT (dsDNA (Pseudomonas aeruginosa))", "tested on": "exsA full length assumed (Pseudomonas aeruginosa, UniProt P26993)", "assay": "EMSA", "test system": "double-stranded DNA, one strand shown", "setting": "20 nM, two shifted bands", "endpoint": "binding", "result": "binds"}
{"Substance": "GAGCTTCTCCCTGGCTTGGGACGGGCTGACGTGAACCACGGGACCCGAGAAGGGCTGAGGAAGGGCTGGAGAGCTGCGGAAGAGCTGCGGAGGAGCTGCGGAAGAGCTGCGGAAGAGCTGGAGGTCAAAGATACGTACTAGACGGTTTTGTCTTCAAGTCCCTCTTGCGGTCAAGGGTCATCCCTTACAAGGGAGTTGGGGGTGAGATATGTGTTTTTGAGTGGTTTGTGAGAGGGCG (dsDNA)", "tested on": "T1, AfsR 1-980 (Streptomyces avermitilis)", "assay": "EMSA", "test system": "double-stranded DNA, one strand shown", "endpoint": "binding", "result": "binds"}
{"Substance": "GATTACTTTTTTGCAATTTCATATGATCAATCCCCTTTATTTTAATATGTCATTAATTATACAATTAAATGGAAAATAGTGATAATTACAAAGAAAAAAATATTGTCAAATGTAGCAATGTTGTAATACAATATAGAAACTTTTTACGAATATTTAGCATGAATTGCAATTTGTCGTGGAAAAGAAGAATAACAGATTTAAGAATGACATGGAGAAAAAAGAGGTGAGCAT (dsDNA)", "tested on": "mgrA full length assumed", "assay": "EMSA", "test system": "double-stranded DNA, one strand shown", "setting": "together with: Montelukast absent", "endpoint": "Kd", "result": "10600 ± 3400 nM"}
{"Substance": "ATTCGGCGTAAGGTGTGGCGCGTGGGTTTGCCTGAGAGGGCTCTCGGGTACACCATGGAAGTCACGGATCGTTCGCGACCGTGCTAACCCGGTCCGACTCCTCCCCCCCCGAGTCGGCCGTGGGGACGACCCCCGCTCTCCCCCCCGGCGGGGGTCGTCGCATGTCCGGATGGGTTTTCCTCCTTCTTTCAACGGTTTTTGAGCCTCGTCGCGGCCTCCCGGGCCGCTCTTTTTTATTCCCGTGAT (dsDNA)", "tested on": "T1, AfsR 1-980 (Streptomyces avermitilis)", "assay": "EMSA", "test system": "double-stranded DNA, one strand shown", "endpoint": "binding", "result": "no binding"}
{"Substance": "insulin human", "assay": "measured: NDN", "test system": "mouse, EcoHIV-infected, brain", "setting": "ip, dose not given, together with: insulin", "how to read": "baseline: PBS-treated", "endpoint": "mRNA fold change", "result": 1.1}
